Experimental data from different studies.
Each line is one published result; not all experiments were run side by side.
Organism: Pseudomonas aeruginosa

| SMILES | test | system | setting | MIC |
| --- | --- | --- | --- | --- |
| CC(C)C[C@H](NC(=O)[C@H](CCC(=O)O)NC(=O)[C@H](CCCNC(=N)N)NC(=O)[C@H](C)NC(=O)[C@@H](NC(=O)[C@H](Cc1c[nH]cn1)NC(=O)[C@@H](N)Cc1c[nH]cn1)C(C)C)C(=O)N[C@@H](Cc1c[nH]cn1)C(=O)N1CCC[C@H]1C(=O)N[C@@H](CCC(=O)O)C(=O)N[C@@H](Cc1ccc(O)cc1)C(=O)N[C@@H](Cc1ccccc1)C(=O)N[C@@H](CCCCN)C(=O)N[C@@H](CC(N)=O)C(=O)N[C@@H](CS)C(=O)O | broth microdilution | PTCC 1074 | overnight, 37 °C | 10 µM |
| CSCC[C@H](NC(=O)[C@H](CCCCN)NC(=O)[C@H](CCCCN)NC(=O)[C@@H](NC(=O)[C@H](CCCCN)NC(=O)[C@H](CC(=O)O)NC(=O)[C@H](Cc1c[nH]c2ccccc12)NC(=O)[C@H](CC(C)C)NC(=O)[C@H](CCC(=O)O)NC(=O)[C@H](CCCCN)NC(=O)[C@@H](NC(=O)[C@@H](N)Cc1ccccc1)C(C)C)C(C)C)C(=O)NCC(=O)N[C@@H](CO)C(=O)N[C@@H](C)C(=O)N[C@@H](C)C(=O)N[C@@H](Cc1c[nH]c2ccccc12)C(=O)N[C@@H](CO)C(=O)N[C@@H](C)C(=O)N[C@@H](C)C(=O)N[C@@H](CCCCN)C(=O)NCC(=O)N[C@@H](C)C(=O)N[C@@H](Cc1ccccc1)C(=O)N[C@@H](C)C(=O)O | broth microdilution | ATCC 27853 | 20 h, 37 °C | > 40 µM |
| CC[C@H](C)[C@H](NC(=O)[C@H](CCCNC(=N)N)NC(=O)[C@H](Cc1c[nH]c2ccccc12)NC(=O)[C@H](CCCNC(=N)N)NC(=O)[C@@H](N)CCCCN)C(=O)N[C@@H](CCCNC(=N)N)C(=O)N[C@H](C(=O)N[C@@H](CCCNC(=N)N)C(=O)N[C@H](C(=O)N[C@H](C(=O)N[C@@H](CCCNC(=N)N)C(=O)N[C@@H](CCCCN)C(=O)N[C@@H](CS)C(=O)O)[C@@H](C)CC)C(C)C)C(C)C |  | ATCC 27853 | 24 h, 37 °C | 40 µM |
| CC(C)C[C@H](NC(=O)[C@H](C)NC(=O)CNC(=O)[C@@H](NC(=O)[C@@H](NC(=O)[C@H](CCCCN)NC(=O)[C@H](CCCCN)NC(=O)[C@@H](NC(=O)[C@H](CC(C)C)NC(=O)[C@H](CCCCN)NC(=O)[C@H](CC(C)C)NC(=O)[C@H](CC(C)C)NC(=O)[C@@H](N)CCCCN)C(C)C)C(C)C)C(C)C)C(=O)NCC(N)=O |  | ATCC 19606, CAMHB | 18 h, 37 °C | > 22 µM |
| N=C(N)NCCC[C@H](NC(=O)[C@H](Cc1c[nH]cn1)NC(=O)[C@@H]1CCCN1C(=O)[C@H](CS)NC(=O)[C@@H](N)Cc1ccc(O)cc1)C(=O)N[C@@H](CS)C(=O)O | broth microdilution | MTCC 1688 | 37 °C | 50 mg/L |
| CC[C@H](C)CCCCC(=O)N[C@@H](CCN)C(=O)N[C@H](C(=O)N[C@@H](CCN)C(=O)N[C@H]1CCNC(=O)[C@H]([C@@H](C)O)NC(=O)[C@H](CCN)NC(=O)[C@H](CCN)NC(=O)[C@H](CC(C)C)NC(=O)[C@@H](CC(C)C)NC(=O)[C@H](CCN)NC1=O)[C@@H](C)O |  | PAO1, LB medium |  | 0.21 µM |
| Cn1ccc(=O)nc1Sc1ccc([N+](=O)[O-])cc1[N+](=O)[O-] |  | ATCC 29853 |  | 125 mg/L |
| CC[C@H](C)[C@H](N)C(=O)N[C@@H](CCCCN)C(=O)N[C@@H](Cc1c[nH]c2ccccc12)C(=O)N[C@@H](CCCCN)C(=O)N[C@@H](CCCCN)C(=O)N[C@@H](CC(C)C)C(=O)N[C@@H](CC(C)C)C(=O)N[C@@H](CCCNC(=N)N)C(=O)N[C@@H](C)C(=O)N[C@@H](C)C(=O)N[C@@H](CCCCN)C(=O)N[C@@H](CCCNC(=N)N)C(=O)N[C@H](C(=O)N[C@@H](CC(C)C)C(N)=O)[C@@H](C)CC | broth microdilution | PAO1 |  | 6.25 µM |
| CC[C@H](C)[C@H](NC(=O)[C@H](C)NC(=O)[C@@H](NC(=O)[C@H](C)NC(=O)CNC(C)=O)[C@@H](C)O)C(=O)N[C@@H](CCCCN)C(=O)N[C@@H](CCC(N)=O)C(=O)N[C@H](C(=O)N[C@@H](CCCCN)C(=O)N[C@@H](CCCCN)C(=O)N[C@@H](CC(C)C)C(=O)N[C@@H](Cc1ccccc1)C(=O)N[C@@H](CCCCN)C(=O)N[C@@H](CCCCN)C(=O)N[C@@H](CCCCN)C(=O)NCC(=O)NCC(N)=O)C(C)C | broth microdilution | ATCC 9027 | 24 h, 37 °C | 310 µM |
| CC[C@H](C)[C@H](NC(=O)[C@H](CC(=O)O)NC(=O)[C@H](Cc1ccccc1)NC(=O)[C@H](CC(C)C)NC(=O)CN)C(=O)N[C@H](C(=O)N[C@@H](CCCCN)C(=O)N[C@@H](CCCCN)C(=O)N[C@H](C(=O)N[C@H](C(=O)NCC(=O)N[C@@H](C)C(=O)N[C@@H](CC(C)C)C(=O)N[C@@H](CCCCN)C(N)=O)C(C)C)C(C)C)C(C)C |  | ATCC 19606, CAMHB | 18 h, 37 °C | > 22 µM |
| CC[C@H](C)[C@H](NC(=O)[C@H](CC(C)C)NC(=O)CNC(=O)[C@@H]1CCCN1C(=O)[C@H](CC(C)C)NC(=O)[C@H](C)NC(=O)[C@H](CCCCN)NC(=O)CNC(=O)[C@H](CC(C)C)NC(=O)[C@H](CCSC)NC(=O)[C@H](CCCCN)NC(=O)[C@H](C)NC(=O)[C@H](C)NC(=O)[C@H](C)NC(=O)CNC(=O)[C@H](Cc1c[nH]c2ccccc12)NC(=O)[C@@H](N)Cc1ccccc1)C(=O)N[C@@H](CO)C(=O)N[C@@H](CCSC)C(=O)N[C@@H](Cc1ccccc1)C(=O)N[C@@H](CCC(N)=O)C(=O)N[C@@H](CCCCN)C(=O)N[C@@H](CC(N)=O)C(=O)O | broth microdilution | ATCC 27853 | 20 h, 37 °C | > 40 µM |

A few entries again:
| SMILES | test | system | setting | MIC |
| --- | --- | --- | --- | --- |
| CC[C@H](C)[C@H](NC(=O)[C@H](C)NC(=O)[C@@H](NC(=O)[C@H](C)NC(=O)CNC(C)=O)[C@@H](C)O)C(=O)N[C@@H](CCCCN)C(=O)N[C@@H](CCC(N)=O)C(=O)N[C@H](C(=O)N[C@@H](CCCCN)C(=O)N[C@@H](CCCCN)C(=O)N[C@@H](CC(C)C)C(=O)N[C@@H](Cc1ccccc1)C(=O)N[C@@H](CCCCN)C(=O)N[C@@H](CCCCN)C(=O)N[C@@H](CCCCN)C(=O)NCC(=O)NCC(N)=O)C(C)C | broth microdilution | ATCC 9027 | 24 h, 37 °C | 310 µM |
